Assay results of several laboratories.
Each line is one published result; not all experiments were run side by side. ± gives the spread as reported.

Compound | assay | test system | setting | measurement | result
O=c1oc2c(O)c(O)ccc2c2cc(O)c(O)cc12 | potentiometric titration | water, extrapolated from methanol/water | 25 °C | pKa2 | 8.43
Cc1cc(-c2ccc3ccccc3c2)nnc1NCCN1CCN(C)CC1 | metabolic stability | rat, liver microsomes | – | half-life | > 1 h
CCCCCCCCCCCCC(=O)O.O=C1CCCC2C3CCCN4CCCC(CN12)C34 (centres unmarked) | conductometry | water | 298.15 K | limiting molar conductivity | 42.52 ± 0.09 S cm²/mol
OC1CCN(c2ncc(-c3cc4ccc([18F])cc4[nH]3)cn2)CC1 | dynamic PET | Sprague-Dawley rats, both sexes, whole brain | intravenous, dose not given | peak brain radioactivity | 1.7 ± 0.2 SUV
O=C1C(P(=O)(O)O)CCCN1O (centres unmarked) | – | cynomolgus monkey, plasma | subcutaneous, 400 mg/kg, single dose, over several hours | plasma concentration | > 2000 µM
COC(=O)C[C@](O)(CCCC(C)(C)OC(C)=O)C(=O)O[C@@H]1C(OC)=C[C@]23CCCN2CCc2cc4c(cc2[C@H]13)OCO4 | – | CD1 mouse, esophagus | subcutaneous, 1 mg/kg, 8 h | concentration | not detected
Cn1cc(-c2cccc(CN3CCC4(CC3)COc3c4ccc4c3CN([C@H]3CCC(=O)NC3=O)C4=O)c2)cn1 | – | mouse Crbn I391V, thymus | oral, 100 mg/kg, 6 h | tissue concentration | 2850 ng/g
O=C(c1ccc(F)cc1)C1CCN(C2Cc3c(cccc3OCC[18F])CC2O)CC1 (single isomer, unassigned; (-)) | – | rat, brain | 5 min | tracer uptake | 0.144 %ID/g
Cc1ccc(OCC(=O)N(Cc2cccs2)c2ccn[nH]2)cc1 | – | Crl:CD(SD) rat, bred female | oral, 1000 mg/kg/day, mean per litter, developmental toxicity | fetal weight | 5.7 g
COc1cc(NC(=O)C(=O)c2c(C)n(Cc3ccc(Cl)cc3)c3ccc(C)cc23)ccn1 | – | cynomolgus monkey, plasma | intravenous, 1 mg/kg | half-life | 21.5 h
NC(=O)CC[C@@H](NC(=O)[C@@H](CCC(N)=O)NC(=O)[C@@H](CC(N)=O)NC(=O)[C@@H](CC(N)=O)NC(=O)CNC(=O)Cc1ccc2ccccc2c1)C(=O)N[C@H](CC(N)=O)C(=O)N[C@H](Cc1ccc(OP(=O)(O)O)cc1)C(=O)O | strain sweep rheology | hydrogel | pH 7.4 | critical strain | 0.53%

A few entries again:
Compound | assay | test system | setting | measurement | result
Cc1ccc(OCC(=O)N(Cc2cccs2)c2ccn[nH]2)cc1 | – | Crl:CD(SD) rat, bred female | oral, 1000 mg/kg/day, mean per litter, developmental toxicity | fetal weight | 5.7 g
